Results gathered from unrelated publications.
Technique: steady-state kinetics
B1: Gcs (Leishmania donovani, UniProt Q67BG3); chain MGLLTTGGAPIQWGTDANRKAIPHVREHGIQQFLNVFKNKKDLHGMPFLWGEELEHQLIQIHDNTVTLSTESAMVMNKLRARPDNCAVWNPEYGSFMIESTPDHPYSLSVESLDSVQDNIERRYDMLNKEAPPGVVGTTFVTFPLMGQGNFVHCSDKSSPYSQSLFVPDACINQTHPRFANLTANIRLRRGQKVCVLVPLYMDSRTMQDTVDPQLNIDLTPHNKDIFYSMRENGRNMTDELYAETDASAALLVPSSSLDPREDYPVTETLKQLFTPATLYYYAQYFTGQRREHMQERYNACNCPVTLVSHPCIYMDCMAFGMGNSALQVTMQLDNIHEARHVYDQLAILCPAFLALSSATPFQKGLLCDTDVRWLTIAGAVDDRRVEEVPRILKSRYDSISVFISDRTENLEEFNDSQIAINRSYCELLKDSGVDVRLANHIAHLFIRDPLVMYDKMIDIDDTTHTEHFDNIQSTNWQTVRFKPPPIGNDIGWRVEFRVMDIQPTPFENAAFAVFIPLLTKAIITYKPCFYTKISIVDENMGRAHRINPCGEQYIMRKDIFADKCTASDEETARMSIDEIFNGKEGGFYGLIPLVCRYLDDEGKRSPLVNSYLKFLSMRASGRIPTPAQYMRKFVTTHPDYKHDSRLTDSIARDLVQRMHGLAANQIHDDDYLPMSFFTADTVESTK
B2: protein (Listeria innocua, UniProt A0ACH1DCV7); chain MESLELEQLVKKVLLEKLAEQKEVPTKTTTQGAKSGVFDTVDEAVQAAVIAQNCYKEKSLEERRNVVKAIREALYPEIETIATRAVAETGMGNVTDKILKNTLAIEKTPGVEDLYTEVATGDNGMTLYELSPYGVIGAVAPSTNPTETLICNSIGMLAAGNAVFYSPHPGAKNISLWLIEKLNTIVRDSCGIDNLIVTVAKPSIQAAQEMMNHPKVPLLVITGGPGVVLQAMQSGKKVIGAGAGNPPSIVDETANIEKAAADIVDGASFDHNILCIAEKSVVAVDSIADFLLFQMEKNGALHVTNPSDIQKLEKVAVTDKGVTNKKLVGKSATEILKEAGIACDFTPRLIIVETEKSHPFATVELLMPIVPVVRVPDFDEALEVAIELEQGLHHTATMHSQNISRLNKAARDMQTSIFVKNGPSFAGLGFRGEGSTTFTIATPTGEGTTTARHFARRRRCVLTDGFSIR
B3: enzyme (Brachypodium distachyon, UniProt I1IPY7); chain MEQGKAALGWAARDASGHLSPYNFSRRVQKDDDVTIKVLFCGICHTDLHIIKNEWGNALYPIVPGHEVVGVVTDVGPGVKNFKAGETVGVGYFLDSCRTCDSCSKGHENYCPTLVLTSNGVDYDGATTQGGFSDVVVVNQDYVVRVPDTLPPDGAAPLLCAGVTVYSPMMQYGLNAPGKHLGVVGLGGLGHMAVKFGKAFGMKVTVISSSLRKREEALDRLGADDFLVSSDAEQMKAAAGAMDGIIDTVSAGHPIVPLLELLRPMGQMVVCGAPSEPLQLPAYAVITGGKRIAGNGVGSVRDCQAMLDFAGEHGITADVEVVKMDYVNTAVERLERNDVRYRFVIDVAGSLQQGGAA
B4: enzyme R120K (Arabidopsis thaliana, UniProt O82390); chain MNARALLCSSNIHSLYTSNRPPEKTSSSRSLRNLKPSPKSLRVWIYPRNRSSVFRVLVRSSDKSESSNSYYVEGDKVSGNNDVVSDSPSSIVLPWWEEFPKRWVIVLLCFSAFLLCNMDKVNMSIAILPMSAEYGWNPATVGLIQSSFFWGYLLTQIAGGIWADTVGGKRVLGFGVIWWSIATILTPVAAKLGLPYLLVVRAFMGVGEGVAMPAMNNILSKWVPVQERSRSLALVYSGMYLGSVTGLAFSPFLIHQFGWPSVFYSFGSLGTVWLTLWLTKAESSPLEDPTLLPEERKLIADNCASKEPVKSIPWRLILSKPPVWALISCHFCHNWGTFILLTWMPTYYHQVLKFNLMESGLLSVFPWMTMAISANAGGWIADTLVSRGFSVTNVRKIMQTIGFLGPAFFLTQLKHIDSPTMAVLCMACSQGTDAFSQSGLYSNHQDIAPRYSGVLLGLSNTAGVLAGVLGTAATGHILQHGSWDDVFTISVGLYLVGTVIWNLFSTGEKIID
B5: FMO1 I303V (Homo sapiens, UniProt Q01740); chain AKRVAIVGAGVSGLASIKCCLEEGLEPTCFERSDDLGGLWRFTEHVEEGRASLYKSVVSNSCKEMSCYSDFPFPEDYPNYVPNSQFLEYLKMYANHFDLLKHIQFKTKVCSVTKCSDSAVSGQWEVVTMHEEKQESAIFDAVMVCTGFLTNPYLPLDSFPGINAFKGQYFHSRQYKHPDIFKDKRVLVIGMGNSGTDIAVEASHLAEKVFLSTTGGGWVISRIFDSGYPWDMVFMTRFQNMLRNSLPTPIVTWLMERKINNWLNHANYGLIPEDRTQLKEFVLNDELPGRIITGKVFIRPSVKEVKENSVIFNNTSKEEPIDIIVFATGYTFAFPFLDESVVKVEDGQASLYKYIFPAHLQKPTLAIIGLIKPLGSMIPTGETQARWAVRVLKGVNKLPPPSVMIEEINARKENKPSWFGLCYCKALQSDYITYIDELLTYINAKPNLFSMLLTDPHLALTVFFGPCSPYQFRLTGPGKWEGARNAIMTQWDRTFKVIKARVVQESPSPFESFLKVFSFLALLVAIFLIFL
B6: UGT1A9 (Homo sapiens, UniProt O60656); chain GKLLVVPMDGSHWFTMRSVVEKLILRGHEVVVVMPEVSWQLGRSLNCTVKTYSTSYTLEDLDREFKAFAHAQWKAQVRSIYSLLMGSYNDIFDLFFSNCRSLFKDKKLVEYLKESSFDAVFLDPFDNCGLIVAKYFSLPSVVFARGILCHYLEEGAQCPAPLSYVPRILLGFSDAMTFKERVRNHIMHLEEHLLCHRFFKNALEIASEILQTPVTEYDLYSHTSIWLLRTDFVLDYPKPVMPNMIFIGGINCHQGKPLPMEFEAYINASGEHGIVVFSLGSMVSEIPEKKAMAIADALGKIPQTVLWRYTGTRPSNLANNTILVKWLPQNDLLGHPMTRAFITHAGSHGVYESICNGVPMVMMPLFGDQMDNAKRMETKGAGVTLNVLEMTSEDLENALKAVINDKSYKENIMRLSSLHKDRPVEPLDLAVFWVEFVMRHKGAPHLRPAAHDLTWYQYHSLDVIGFLLAVVLTVAFITFKCCAYGYRKCLGKKGRVKKAHKSKTH
B7: HCT R356D (Coleus scutellarioides, UniProt E8ZAP2); chain MKIHVRDSTLVRPSAATPAVSLWNSNVDLVVPNFHTPSVYFYRPSGADNFFDTAVMKAALGRALVSFYPMAGRLKRDEDGRVEIDCNAEGVLFVEAESDGTVDDYGDFAPSLELRRLIPAVDYSQGISAYPLLVLQVTFFKCGGVSLGVGMQHHAADGFSGLHFINTWSDMARGLDITLPPFIDRTLLSARDPPQPQFKHVEYQPPPAMKTYEPAETVVSIFKLTKDQLTTLKAKSKEDGNTTTYSSYEMLSGHVWRCTCLARGLPEEQETKLYIATDGRSRLQPQLPPGYFGNVIFTATPLAVAGDLGSKPVWYAASKIHDALARMDNDYLRSALDFLELQPDLKALVRGAHTFDCPNLGITSWVRLPIHDADFGWGRPIFMGPGGIAYEGLSFVLPSPTNDGSLSVAISLQAEHMKLFEKLLYQI
UniProt I0DFJ0, sequence (whole entry, looked up): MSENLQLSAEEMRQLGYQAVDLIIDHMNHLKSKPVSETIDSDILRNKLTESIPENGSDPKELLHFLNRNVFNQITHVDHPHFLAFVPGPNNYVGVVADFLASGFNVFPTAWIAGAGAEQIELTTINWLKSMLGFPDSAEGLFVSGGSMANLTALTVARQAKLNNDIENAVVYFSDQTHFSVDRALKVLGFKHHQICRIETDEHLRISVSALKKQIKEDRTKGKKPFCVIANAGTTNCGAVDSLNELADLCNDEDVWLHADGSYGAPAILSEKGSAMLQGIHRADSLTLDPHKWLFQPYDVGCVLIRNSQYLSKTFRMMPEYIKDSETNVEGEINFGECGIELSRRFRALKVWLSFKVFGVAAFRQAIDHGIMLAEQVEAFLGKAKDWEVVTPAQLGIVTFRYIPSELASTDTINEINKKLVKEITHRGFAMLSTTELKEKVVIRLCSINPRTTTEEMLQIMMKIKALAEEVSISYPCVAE
UniProt P10632, sequence (whole entry, looked up): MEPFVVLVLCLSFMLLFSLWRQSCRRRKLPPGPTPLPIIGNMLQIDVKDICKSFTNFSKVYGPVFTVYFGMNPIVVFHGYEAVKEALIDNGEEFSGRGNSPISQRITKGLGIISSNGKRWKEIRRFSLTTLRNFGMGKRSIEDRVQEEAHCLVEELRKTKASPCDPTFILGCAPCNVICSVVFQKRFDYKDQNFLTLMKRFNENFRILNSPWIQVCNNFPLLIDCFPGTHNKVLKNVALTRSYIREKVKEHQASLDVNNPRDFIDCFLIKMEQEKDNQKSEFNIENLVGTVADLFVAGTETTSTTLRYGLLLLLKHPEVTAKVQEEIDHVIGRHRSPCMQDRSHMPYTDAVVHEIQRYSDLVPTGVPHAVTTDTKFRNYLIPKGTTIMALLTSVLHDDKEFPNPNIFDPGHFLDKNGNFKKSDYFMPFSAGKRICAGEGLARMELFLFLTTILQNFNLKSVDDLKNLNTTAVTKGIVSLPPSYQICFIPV
UniProt Q3SY77, sequence (whole entry, looked up): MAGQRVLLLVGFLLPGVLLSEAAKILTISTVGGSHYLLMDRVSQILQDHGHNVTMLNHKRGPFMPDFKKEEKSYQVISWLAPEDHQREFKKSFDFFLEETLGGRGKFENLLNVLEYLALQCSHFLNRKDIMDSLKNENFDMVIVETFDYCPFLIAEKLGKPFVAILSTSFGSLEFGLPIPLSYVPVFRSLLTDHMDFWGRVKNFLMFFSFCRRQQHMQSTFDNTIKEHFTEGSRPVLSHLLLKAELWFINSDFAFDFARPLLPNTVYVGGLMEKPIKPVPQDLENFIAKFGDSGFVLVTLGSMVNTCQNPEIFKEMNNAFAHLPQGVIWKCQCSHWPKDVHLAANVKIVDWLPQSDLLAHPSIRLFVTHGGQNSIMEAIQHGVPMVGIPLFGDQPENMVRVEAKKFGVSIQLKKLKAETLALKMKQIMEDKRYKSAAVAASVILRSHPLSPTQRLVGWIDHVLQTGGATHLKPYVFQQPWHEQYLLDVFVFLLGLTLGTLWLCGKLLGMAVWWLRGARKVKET
UniProt Q9WXT2, sequence (whole entry, looked up): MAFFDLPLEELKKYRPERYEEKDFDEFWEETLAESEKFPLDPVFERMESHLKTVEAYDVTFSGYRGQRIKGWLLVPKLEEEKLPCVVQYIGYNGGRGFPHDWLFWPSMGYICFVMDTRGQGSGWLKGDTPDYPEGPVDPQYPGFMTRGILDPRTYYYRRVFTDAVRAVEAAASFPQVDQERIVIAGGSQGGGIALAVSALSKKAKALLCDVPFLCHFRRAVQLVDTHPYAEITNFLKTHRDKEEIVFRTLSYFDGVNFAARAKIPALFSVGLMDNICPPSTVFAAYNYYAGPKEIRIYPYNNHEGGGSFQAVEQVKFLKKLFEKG
UniProt Q04JB0, sequence (whole entry, looked up): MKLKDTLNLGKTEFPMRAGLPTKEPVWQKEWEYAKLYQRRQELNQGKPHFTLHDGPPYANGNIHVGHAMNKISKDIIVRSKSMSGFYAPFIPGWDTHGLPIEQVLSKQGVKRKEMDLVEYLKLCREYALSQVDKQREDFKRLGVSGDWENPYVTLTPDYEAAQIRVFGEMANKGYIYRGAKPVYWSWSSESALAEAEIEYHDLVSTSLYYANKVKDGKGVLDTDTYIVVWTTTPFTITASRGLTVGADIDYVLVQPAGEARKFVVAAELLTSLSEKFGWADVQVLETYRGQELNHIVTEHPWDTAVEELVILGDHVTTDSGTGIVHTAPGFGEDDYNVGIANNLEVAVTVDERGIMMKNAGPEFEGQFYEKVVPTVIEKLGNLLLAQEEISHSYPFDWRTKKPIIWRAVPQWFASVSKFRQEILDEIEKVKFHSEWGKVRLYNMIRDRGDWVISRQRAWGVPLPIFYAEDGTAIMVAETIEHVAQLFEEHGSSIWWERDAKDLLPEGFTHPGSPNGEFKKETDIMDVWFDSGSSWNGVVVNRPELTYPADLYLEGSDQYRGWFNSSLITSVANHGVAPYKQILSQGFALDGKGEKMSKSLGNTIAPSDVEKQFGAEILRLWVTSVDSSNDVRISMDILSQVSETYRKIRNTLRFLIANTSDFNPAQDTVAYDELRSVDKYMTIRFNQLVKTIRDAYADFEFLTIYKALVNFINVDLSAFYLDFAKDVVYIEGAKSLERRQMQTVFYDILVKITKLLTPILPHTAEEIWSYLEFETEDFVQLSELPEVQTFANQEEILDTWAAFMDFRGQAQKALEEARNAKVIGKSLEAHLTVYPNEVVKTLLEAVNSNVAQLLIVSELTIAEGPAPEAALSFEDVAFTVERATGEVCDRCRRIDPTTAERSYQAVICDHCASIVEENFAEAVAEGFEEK

Molecule	substrate	system	conditions	Vmax
protein (Danio rerio, UniProt A0ACM8QCA3)	C[C@H](CCCC(CO)CO)[C@H]1CC[C@H]2[C@@H]3[C@H](O)C[C@@H]4C[C@H](O)CC[C@]4(C)[C@H]3C[C@H](O)[C@]12C		pH 7, 28 °C, substrate inhibition, with: PAPS 14 µM	0.0756 µmol/min/mg
B1 (Gcs)	Nc1ncnc2c1ncn2[C@@H]1O[C@H](COP(=O)(O)OP(=O)(O)OP(=O)(O)O)[C@@H](O)[C@H]1O		apparent, with: L-glutamate, L-cysteine, Mg2+	85.3 µM/min/mg
CYP2C8 (Homo sapiens, UniProt P10632)	COc1cc2c(cc1CC=C(C)C)C(=O)C[C@@H](c1ccc(O)cc1)O2		pH 7.4, 37 °C	0.000218 µmol/min/mg
B2 (protein)	CC=O	cell extract	not purified, with: CoA	9.06 µmol/min/mg
enzyme (Thermotoga maritima, UniProt Q9WZ18)	Cc1cc2nc3c(=O)[nH]c(=O)nc-3n(C[C@H](O)[C@H](O)[C@H](O)COP(=O)(O)OP(=O)(O)OC[C@H]3O[C@@H](n4cnc5c(N)ncnc54)[C@H](O)[C@@H]3O)c2cc1C		pH 7, 80 °C, apparent, cofactor varied	134 µmol/min/mg
axeA (Thermotoga maritima, UniProt Q9WXT2)	CC(=O)Oc1ccc([N+](=O)[O-])cc1		pH 6.5, 50 °C, temperature uncertain, apparent	114 µmol/min/mg
B3 (enzyme)	NC(=O)C1=CN([C@@H]2O[C@H](COP(=O)(O)OP(=O)(O)OC[C@H]3O[C@@H](n4cnc5c(N)ncnc54)[C@H](OP(=O)(O)O)[C@@H]3O)[C@@H](O)[C@H]2O)C=CC1		pH 5.35, 23 °C, cofactor varied	6.89 µmol/min/mg
B4 (enzyme R120K)	O=P(O)(O)O		pH 6.5, 25 °C, apparent, not purified	0.00425 µmol/min/mg
B5 (FMO1 I303V)	CN1CCC[C@H]1c1cccnc1	HEK293 microsomes	37 °C, not purified, with: NADPH regenerating system	6.9e-06 µmol/min/mg
speG (Vibrio cholerae, UniProt Q9KL03)	NCCCNCCCCNCCCN		pH 9, 37 °C	111 µmol/min/mg
UGT3A2 (Homo sapiens, UniProt Q3SY77)	O=c1ccn([C@@H]2O[C@H](CO[P@@](=O)(O)O[P@@](=O)(O)O[C@H]3O[C@H](CO)[C@@H](O)[C@H](O)[C@H]3O)[C@@H](O)[C@H]2O)c(=O)[nH]1		pH 7.4, 37 °C, not purified, with: 1-OH-pyrene 16 µM, MgCl2 10 mM, alamethicin	0.000997 µmol/min/mg
ileS (Streptococcus pneumoniae, UniProt Q04JB0)	CC[C@H](C)[C@H](N)C(=O)O		pH 7.2, 37 °C, with: ATP 2 mM	0.0005 µM/min/mg
B6 (UGT1A9)	COc1cccc(-c2cc(=O)c3ccc(O)cc3o2)c1		pH 7.4, 37 °C	0.000132 µmol/min/mg
aromatic amino acid decarboxylase (Bacillus atrophaeus, UniProt I0DFJ0)	N[C@@H](Cc1c[nH]c2ccccc12)C(=O)O		pH 7, 37 °C, not purified, with: PLP 40 µM	0.3 µmol/min/mg
B7 (HCT R356D)	NCc1ccc(O)c(O)c1		pH 8, pseudo-first-order, with: p-coumaroyl CoA	35.4 µmol/min/mg

A few entries again:
Molecule	substrate	system	conditions	Vmax
B7 (HCT R356D)	NCc1ccc(O)c(O)c1		pH 8, pseudo-first-order, with: p-coumaroyl CoA	35.4 µmol/min/mg
B4 (enzyme R120K)	O=P(O)(O)O		pH 6.5, 25 °C, apparent, not purified	0.00425 µmol/min/mg
